Earlier results, collected from citations in different studies.
Protocols differ between the studies behind these lines. Numbers after ± are the reported error.

SMILES | system | setting | scale | measurement | result
Cc1ncc2n1-c1ccc(Cl)cc1C(c1ccccc1F)=NC2 | human | oral, 2.5 mg, single agent, geometric mean |  | AUC(0-12h) | 0.0617 µM·h
COc1ccc2c3c1O[C@H]1C(=O)CC[C@@]4(O)[C@@H](C2)N(C)CC[C@]314 | patients with hepatic or renal impairment, plasma | dose not given |  | Cmax | increased
COC(=O)Nc1nc2cc(C(=O)c3ccc(F)cc3)ccc2[nH]1 | Wistar rat, plasma | oral, 10 mg/kg |  | plasma level | 270 ng/mL
CC(=O)NNC(=O)c1ccncc1 | THP-1 foamy macrophage matrix | 5 µM, 4 h, 37 °C |  | fraction unbound | > 99.9%
CN(C)C[C@H]1CCCC[C@]1(O)c1cccc(O)c1 | human, urine | oral, dose not given, after tramadol dosing | baseline: dose | urinary excretion | > 10%
CC(=O)NC[C@H]1CN(c2ccc(N3CCSCC3)c(F)c2)C(=O)O1 | caseum | 5 µM, 4 h, 37 °C |  | unbound fraction | 30.1 ± 8.7%
COc1cccc(C2(O)CCCCC2CN(C)C)c1 (stereo not shown) | human, urine | oral, dose not given | baseline: dose | urinary excretion unchanged | 12 to 32%
C[C@H]1COc2c(N3CCN(C)CC3)c(F)cc3c(=O)c(C(=O)O)cn1c23 | caseum | 5 µM, 4 h, 37 °C |  | unbound fraction | 8.34 ± 0.4%
CC[C@@H](C(N)=O)N1CCCC1=O | human, plasma | total concentration, therapeutic range |  | therapeutic plasma concentration | 10 to 37 µg/mL
COc1ccc(CN(C(=O)[C@@H](N)Cc2c(C)cc(C(N)=O)cc2C)[C@@H](C)c2nc(-c3ccccc3)c[nH]2)cc1C(=O)O | rhesus monkey | intravenous, 3.2 mg/kg |  | clearance | 154 mL/min
COc1ccc2c3c1O[C@H]1C(=O)CC[C@@]4(O)[C@@H](C2)N(C)CC[C@]314 | human drug abusers | oral, 30 mg, peak, 100-point scale, unit not given | baseline: placebo | drug liking-disliking | 19
O=[As][O-].[Na+] |  |  |  | pKa | 9.23
CC(=O)NC[C@H]1CN(c2ccc(-c3ccc(CNCc4cnn[nH]4)cc3)c(F)c2)C(=O)O1 | caseum | 5 µM, 4 h, 37 °C |  | unbound fraction | 5.2 ± 0.8%
COc1ccc2c3c1O[C@H]1C(=O)CC[C@H]4[C@@H](C2)N(C)CC[C@]314 | non-drug abusers | oral, 30 mg, peak drug minus placebo, unit not given, with: acetaminophen combination | baseline: placebo | drug liking versus placebo | 8
CNC(C)Cc1ccc2c(c1)OCO2 (stereo not shown) | healthy human | oral, dose not given |  | Tmax | 2.2 to 2.6 h
O=C([C@@H](O)CO)N1CC=C(c2c(F)cc(N3C[C@H](COc4ccon4)OC3=O)cc2F)CC1 | caseum | 5 µM, 4 h, 37 °C |  | unbound fraction | 10.7 ± 1.7%
CCCCCn1cc(C(=O)c2cccc3ccccc23)c2ccccc21 | human smokers, urine |  |  | parent drug in urine | not detected
NNC(=O)c1ccncc1 | caseum | 5 µM, 4 h, 37 °C |  | unbound fraction | > 99.9%
O=C(O)c1nn(Cc2ccc(Cl)cc2Cl)c2ccccc12 | plasma | concentration not given |  | Cmax | 23.6 µM
CCOC(=O)C1(c2ccccc2)CCN(C)CC1 |  |  |  | pKa | 8.58
CC(=O)NC[C@H]1CN(c2ccc(N3CCOCC3)c(F)c2)C(=O)O1 | caseum | 5 µM, 4 h, 37 °C |  | unbound fraction | 29.3 ± 3.6%
CNC(C)C(=O)c1ccc2c(c1)OCO2 (stereo not shown) | rat | 5 mg/kg, 48 h |  | urinary excretion | ~3%
